# Measurements gathered from unrelated publications.
# Values joined by “and” are separate records of one study, mostly repeats; a detail may differ.
# Partner: itself
# B1: sso0001 1-202 C32A (Sulfolobus solfataricus, UniProt Q97TX9); chain MITEFLLKKKLEEHLSHVKEENTIYVTDLVRAPRRVRYESEYKELAISQVYAPSAILGDILHLGLESVLKGNFNAETEVETLREINVGGKVYKIKGRADAIIRNDNGKSIVIEIKTSRSDKGLPLIHHKMQLQIYLWLFSAEKGILVYITPDRIAEYEINEPLDEATIVRLAEDTIMLQNSPRFNWECKYCIFSVICPAKLT
# B2: TBK1 D135N/E355A (Homo sapiens, UniProt Q9UHD2); sequence looked up; chain MQSTSNHLWLLSDILGQGATANVFRGRHKKTGDLFAIKVFNNISFLRPVDVQMREFEVLKKLNHKNIVKLFAIEEETTTRHKVLIMEFCPCGSLYTVLEEPSNAYGLPESEFLIVLRDVVGGMNHLRENGIVHRNIKPGNIMRVIGEDGQSVYKLTDFGAARELEDDEQFVSLYGTEEYLHPDMYERAVLRKDHQKKYGATVDLWSIGVTFYHAATGSLPFRPFEGPRRNKEVMYKIITGKPSGAISGVQKAENGPIDWSGDMPVSCSLSRGLQVLLTPVLANILEADQEKCWGFDQFFAETSDILHRMVIHVFSLQQMTAHKIYIHSYNTATIFHELVYKQTKIISSNQELIYAGRRLVLEPGRLAQHFPKTTEENPIFVVSREPLNTIGLIYEKISLPKVHPRYDLDGDASMAKAITGVVCYACRIASTLLLYQELMRKGIRWLIELIKDDYNETVHKKTEVVITLDFCIRNIEKTVKVYEKLMKINLEAAELGEISDIHTKLLRLSSSQGTIETSLQDIDSRLSPGGSLADAWAHQEGTHPKDRNVEKLQVLLNCMTEIYYQFKKDKAERRLAYNEEQIHKFDKQKLYYHATKAMTHFTDECVKKYEAFLNKSEEWIRKMLHLRKQLLSLTNQCFDIEEEVSKYQEYTNELQETLPQKMFTASSGIKHTMTPIYPSSNTLVEMTLGMKKLKEEMEGVVKELAENNHILERFGSLTMDGGLRNVDCL
# B3: NAC92 12-170 H141A (Arabidopsis thaliana, UniProt Q9FKA0); sequence looked up; chain VEDEEHIDLPPGFRFHPTDEELITHYLKPKVFNTFFSATAIGEVDLNKIEPWDLPWKAKMGEKEWYFFCVRDRKYPTGLRTNRATEAGYWKATGKDKEIFKGKSLVGMKKTLVFYKGRAPKGVKTNWVMAEYRLEGKYCIENLPQTAKNEWVICRVFQK
# B4: Nefl 1-415 (Mus musculus, UniProt P08551); sequence looked up; chain MSSFGYDPYFSTSYKRRYVETPRVHISSVRSGYSTARSAYSSYSAPVSSSLSVRRSYSSSSGSLMPSLENLDLSQVAAISNDLKSIRTQEKAQLQDLNDRFASFIERVHELEQQNKVLEAELLVLRQKHSEPSRFRALYEQEIRDLRLAAEDATNEKQALQGEREGLEETLRNLQARYEEEVLSREDAEGRLMEARKGADEAALARAELEKRIDSLMDEIAFLKKVHEEEIAELQAQIQYAQISVEMDVSSKPDLSAALKDIRAQYEKLAAKNMQNAEEWFKSRFTVLTESAAKNTDAVRAAKDEVSESRRLLKAKTLEIEACRGMNEALEKQLQELEDKQNADISAMQDTINKLENELRSTKSEMARYLKEYQDLLNVKMALDIEIAAYRKLLEGEETRLSFTSVGSITSGYSQ
# B5: fesII 1-122 (Azotobacter vinelandii, UniProt Q44501); chain MATIYFSSPLMPHNKKVQAVAGKRSTLLGVAQENGVKIPFECQDGNCGSCLVKITHLDGERIKGMLLTDKERNVLKSVGKLPKSEEERAAVRDLPPTYRLACQTIVTDEDLLVEFTGEPGGA
# B6: ADAR1 127-end 127-1226 K999N (human, UniProt P55265); sequence looked up; chain SSHFQELSIYQDQEQRILKFLEELGEGKATTAHDLSGKLGTPKKEINRVLYSLAKKGKLQKEAGTPPLWKIAVSTQAWNQHSGVVRPDGHSQGAPNSDPSLEPEDRNSTSVSEDLLEPFIAVSAQAWNQHSGVVRPDSHSQGSPNSDPGLEPEDSNSTSALEDPLEFLDMAEIKEKICDYLFNVSDSSALNLAKNIGLTKARDINAVLIDMERQGDVYRQGTTPPIWHLTDKKRERMQIKRNTNSVPETAPAAIPETKRNAEFLTCNIPTSNASNNMVTTEKVENGQEPVIKLENRQEARPEPARLKPPVHYNGPSKAGYVDFENGQWATDDIPDDLNSIRAAPGEFRAIMEMPSFYSHGLPRCSPYKKLTECQLKNPISGLLEYAQFASQTCEFNMIEQSGPPHEPRFKFQVVINGREFPPAEAGSKKVAKQDAAMKAMTILLEEAKAKDSGKSEESSHYSTEKESEKTAESQTPTPSATSFFSGKSPVTTLLECMHKLGNSCEFRLLSKEGPAHEPKFQYCVAVGAQTFPSVSAPSKKVAKQMAAEEAMKALHGEATNSMASDNQPEGMISESLDNLESMMPNKVRKIGELVRYLNTNPVGGLLEYARSHGFAAEFKLVDQSGPPHEPKFVYQAKVGGRWFPAVCAHSKKQGKQEAADAALRVLIGENEKAERMGFTEVTPVTGASLRRTMLLLSRSPEAQPKTLPLTGSTFHDQIAMLSHRCFNTLTNSFQPSLLGRKILAAIIMKKDSEDMGVVVSLGTGNRCVKGDSLSLKGETVNDCHAEIISRRGFIRFLYSELMKYNSQTAKDSIFEPAKGGEKLQIKKTVSFHLYISTAPCGDGALFDKSCSDRAMESTESRHYPVFENPKQGNLRTKVENGEGTIPVESSDIVPTWDGIRLGERLRTMSCSDKILRWNVLGLQGALLTHFLQPIYLKSVTLGYLFSQGHLTRAICCRVTRDGSAFEDGLRHPFIVNHPKVGRVSIYDSKRQSGKTKETSVNWCLADGYDLEILDGTRGTVDGPRNELSRVSKKNIFLLFKKLCSFRYRRDLLRLSYGEAKKAARDYETAKNYFKKGLKDMGYGNWISKPQEEKNFYLCPV
# B7: Pah F80L (Rattus norvegicus, UniProt P04176); sequence looked up; chain MAAVVLENGVLSRKLSDFGQETSYIEDNSNQNGAISLIFSLKEEVGALAKVLRLFEENDINLTHIESRPSRLNKDEYEFLTYLDKRTKPVLGSIIKSLRNDIGATVHELSRDKEKNTVPWFPRTIQELDRFANQILSYGAELDADHPGFKDPVYRARRKQFADIAYNYRHGQPIPRVEYTEEEKQTWGTVFRTLKALYKTHACYEHNHIFPLLEKYCGFREDNIPQLEDVSQFLQTCTGFRLRPVAGLLSSRDFLGGLAFRVFHCTQYIRHGSKPMYTPEPDICHELLGHVPLFSDRSFAQFSQEIGLASLGAPDEYIEKLATIYWFTVEFGLCKEGDSIKAYGAGLLSSFGELQYCLSDKPKLLPLELEKTACQEYSVTEFQPLYYVAESFSDAKEKVRTFAATIPRPFSVRYDPYTQRVEVLDNTQQLKILADSINSEVGILCNALQKIKS
# B8: comFB 1-98 K41A (Bacillus subtilis, UniProt P39146); chain MLVNSKEIVMKELLDRYMDQLHMACTCQVCQNDVLALSLNAVSPSYVTDFKKIAYTKAELVDKQKNTAMLVILAESAAVVSESPSDLCQTKQEEAFIN
# B9: aqpZ 1-231 K155A (Escherichia coli, UniProt P60844); chain MFRKLAAECFGTFWLVFGGCGSAVLAAGFPELGIGFAGVALAFGLTVLTMAFAVGHISGGHFNPAVTIGLWAGGRFPAKEVVGYVIAQVVGGIVAAALLYLIASGKTGFDAAASGFASNGYGEHSPGGYSMLSALVVELVLSAGFLLVIHGATDAFAPAGFAPIAIGLALTLIHLISIPVTNTSVNPARSTAVAIFQGGWALEQLWFFWVVPIVGGIIGGLIYRTLLEKRD
# B10: RBKS A181K (Homo sapiens, UniProt Q9H477); sequence looked up; chain MAASGEPQRQWQEEVAAVVVVGSCMTDLVSLTSRLPKTGETIHGHKFFIGFGGKGANQCVQAARLGAMTSMVCKVGKDSFGNDYIENLKQNDISTEFTYQTKDAATGTASIIVNNEGQNIIVIVAGANLLLNTEDLRAAANVISRAKVMVCQLEITPATSLEALTMARRSGVKTLFNPAPKIADLDPQFYTLSDVFCCNESEAEILTGLTVGSAADAGEAALVLLKRGCQVVIITLGAEGCVVLSQTEPEPKHIPTEKVKAVDTTGAGDSFVGALAFYLAYYPNLSLEDMLNRSNFIAAVSVQAAGTQSSYPYKKDLPLTLF
# B11: PCK1 S62D/T66E (Arabidopsis thaliana, UniProt Q9T074); sequence looked up; chain MSAGNGNATNGDGGFSFPKGPVMPKITTGAAKRGSGVCHDDSGPTVNATTIDELHSLQKKRDAPTEPINQNAAAAFAAVSEEERQKIQLQSISASLASLTRESGPKVVRGDPAEKKTDGSTTPAYAHGQHHSIFSPATGAVSDSSLKFTHVLYNLSPAELYEQAIKYEKGSFITSNGALATLSGAKTGRAPRDKRVVRDATTEDELWWGKGSPNIEMDEHTFMVNRERAVDYLNSLEKVFVNDQYLNWDPENRIKVRIVSARAYHSLFMHNMCIRPTQEELESFGTPDFTIYNAGQFPCNRYTHYMTSSTSVDLNLARREMVILGTQYAGEMKKGLFSVMHYLMPKRRILSLHSGCNMGKDGDVALFFGLSGTGKTTLSTDHNRYLIGDDEHCWTETGVSNIEGGCYAKCVDLSREKEPDIWNAIKFGTVLENVVFDEHTREVDYSDKSVTENTRAAYPIEFIPNAKIPCVGPHPTNVILLACDAFGVLPPVSKLNLAQTMYHFISGYTALVAGTEDGIKEPTATFSACFGAAFIMLHPTKYAAMLAEKMKSQGATGWLVNTGWSGGSYGVGNRIKLAYTRKIIDAIHSGSLLKANYKKTEIFGFEIPTEIEGIPSEILDPVNSWSDKKAHKDTLVKLGGLFKKNFEVFANHKIGVDGKLTEEILAAGPIF
# B12: EndoA D265R (Drosophila melanogaster, UniProt Q8T390); sequence looked up; chain MAFAGLKKQINKANQYMTEKMGGAEGTKLDMDFMEMERKTDVTVELVEELQLKTKEFLQPNPTARAKMAAVKGISKLSGQAKSNTYPQPEGLLAECMLTYGKKLGEDNSVFAQALVEFGEALKQMADVKYSLDDNIKQNFLEPLHHMQTKDLKEVMHHRKKLQGRRLDFDCKRRRQAKDDEIRGAEDKFGESLQLAQVGMFNLLENDTEHVSQLVTFAEALYDFHSQCADVLRGLQETLQEKRSEAESRPRNEFVPKTLLDLNLRGGGGGLNEDGTPSHISSSASPLPSPMRSPAKSMAVTPQRQQQPCCQALYDFEPENPGELAFKENDIITLLNRVDDNWFEGAVNGRTGYFPQSYVQVQVPLPNGN
# B13: SOAT1 (Homo sapiens, UniProt P35610); sequence looked up; chain MVGEEKMSLRNRLSKSRENPEEDEDQRNPAKESLETPSNGRIDIKQLIAKKIKLTAEAEELKPFFMKEVGSHFDDFVTNLIEKSASLDNGGCALTTFSVLEGEKNNHRAKDLRAPPEQGKIFIARRSLLDELLEVDHIRTIYHMFIALLILFILSTLVVDYIDEGRLVLEFSLLSYAFGKFPTVVWTWWIMFLSTFSVPYFLFQHWATGYSKSSHPLIRSLFHGFLFMIFQIGVLGFGPTYVVLAYTLPPASRFIIIFEQIRFVMKAHSFVRENVPRVLNSAKEKSSTVPIPTVNQYLYFLFAPTLIYRDSYPRNPTVRWGYVAMKFAQVFGCFFYVYYIFERLCAPLFRNIKQEPFSARVLVLCVFNSILPGVLILFLTFFAFLHCWLNAFAEMLRFGDRMFYKDWWNSTSYSNYYRTWNVVVHDWLYYYAYKDFLWFFSKRFKSAAMLAVFAVSAVVHEYALAVCLSFFYPVLFVLFMFFGMAFNFIVNDSRKKPIWNVLMWTSLFLGNGVLLCFYSQEWYARQHCPLKNPTFLDYVRPRSWTCRYVF
# B14: ADSL (Homo sapiens, UniProt P30566); sequence looked up; chain MAAGGDHGSPDSYRSPLASRYASPEMCFVFSDRYKFRTWRQLWLWLAEAEQTLGLPITDEQIQEMKSNLENIDFKMAAEEEKRLRHDVMAHVHTFGHCCPKAAGIIHLGATSCYVGDNTDLIILRNALDLLLPKLARVISRLADFAKERASLPTLGFTHFQPAQLTTVGKRCCLWIQDLCMDLQNLKRVRDDLRFRGVKGTTGTQASFLQLFEGDDHKVEQLDKMVTEKAGFKRAFIITGQTYTRKVDIEVLSVLASLGASVHKICTDIRLLANLKEMEEPFEKQQIGSSAMPYKRNPMRSERCCSLARHLMTLVMDPLQTASVQWFERTLDDSANRRICLAEAFLTADTILNTLQNISEGLVVYPKVIERRIRQELPFMATENIIMAMVKAGGSRQDCHEKIRVLSQQAASVVKQEGGDNDLIERIQVDAYFSPIHSQLDHLLDPSSFTGRASQQVQRFLEEEVYPLLKPYESVMKVKAELCL
# B15: dnaD R73A (Bacillus subtilis, UniProt P39787); chain GSHMKKQQFIDMQEQGTSTIPNLLLTHYKQLGLNETELILLLKIKMHLEKGSYFPTPNQLQEGMSISVEECTNRLAMFIQKGFLFIEECEDQNGIKFEKYSLQPLWGKLYEYIQLAQNQTQERKAEGEQKSLYTIFEEEFARPLSPLECETLAIWQDQDQHDAQLIKHALKEAVLSGKLSFRYIDRILFEWKKNGLKTVEQAKIHSQKFRRVQAKQNEPQKEYKRQVPFYNWLEQ
Substance,method,pH,notes,subunits per oligomer
B1 (sso0001 1-202 C32A),SEC,,,5 protomers
B2 (TBK1 D135N/E355A),SEC-MALS,,,2
"VANGL1 (Homo sapiens, UniProt Q8TAA9-1)",cryo-EM structure,,D3 symmetry imposed,6
B3 (NAC92 12-170 H141A),SEC,pH 7.5,,2
B4 (Nefl 1-415),"AUC, electron microscopy",,,2 and 4
B5 (fesII 1-122),AUC,,,2
B6 (ADAR1 127-end 127-1226 K999N),SEC,,,2
B7 (Pah F80L),SEC,,,4 and 2
B8 (comFB 1-98 K41A),SEC-MALS,,,2
B9 (aqpZ 1-231 K155A),native MS,,,4
B10 (RBKS A181K),mass photometry,,,2
B11 (PCK1 S62D/T66E),native PAGE,,,6 and 12
B12 (EndoA D265R),SEC-SAXS,,,2
B13 (SOAT1),native gel,,"CN-PAGE, BN-PAGE",4
B14 (ADSL),SEC-MALS,,,4
B15 (dnaD R73A),SEC,,,2

# For quick reference, copied from above:
Substance,method,pH,notes,subunits per oligomer
B15 (dnaD R73A),SEC,,,2
